Assay results pooled from the literature.
Parts stem from different laboratories: compare values within a part only.

Block 1 — technique: universal PBM; molecule type: double-stranded DNA, one strand shown; matrix: in vitro; tested at: not given; direction: higher = stronger binding
Target: Sal-like protein 4, full length isoform B (SALL4, Homo sapiens, UniProt Q9UJQ4-2, residues 1-616)
Setting: 8-mer, flanks averaged, mean of replicates
Construct (chain): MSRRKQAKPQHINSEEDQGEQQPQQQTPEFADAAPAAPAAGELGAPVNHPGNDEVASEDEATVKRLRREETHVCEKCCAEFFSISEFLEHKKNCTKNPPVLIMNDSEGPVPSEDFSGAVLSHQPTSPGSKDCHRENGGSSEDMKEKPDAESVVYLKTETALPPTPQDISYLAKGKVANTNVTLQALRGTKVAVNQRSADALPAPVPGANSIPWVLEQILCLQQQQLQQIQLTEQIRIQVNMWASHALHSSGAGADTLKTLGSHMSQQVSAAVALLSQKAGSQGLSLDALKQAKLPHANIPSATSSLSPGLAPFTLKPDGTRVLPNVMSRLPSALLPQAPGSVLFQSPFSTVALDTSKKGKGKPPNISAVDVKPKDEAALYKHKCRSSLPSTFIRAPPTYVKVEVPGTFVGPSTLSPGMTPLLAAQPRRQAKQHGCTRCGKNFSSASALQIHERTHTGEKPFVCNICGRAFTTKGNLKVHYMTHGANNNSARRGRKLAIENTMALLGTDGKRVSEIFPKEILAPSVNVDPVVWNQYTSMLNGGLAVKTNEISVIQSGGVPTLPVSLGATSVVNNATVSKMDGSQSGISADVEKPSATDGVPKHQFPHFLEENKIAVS
Oligonucleotide | E-score
AAAATTGG | 0.178
ACACGAAG | -0.0391
GTAACCGA | -0.0742
CATGGGGG | -0.264
CGCCTGAA | -0.181
ATCCTGAG | 0.0542
CAGTGAAA | 0.0538
CATGTTAA | 0.2

Block 2 — technique: protein-binding microarray; molecule type: double-stranded DNA, one strand shown; matrix: in vitro; tested at: 2200 nM top; setting: 60-bp whole probe; together with: salmon DNA 0.4 mg/ml; reference: random background probes; direction: higher = stronger binding; constant ends, left off below: GCCTAGCAC … GTCTTGATTCGCTTGACGCTGCTG
Target: Interferon regulatory factor 7, full length, phosphomimetic (IRF7, Homo sapiens, UniProt Q92985, residues 1-503, S471D/S472D/S475D/S476D/S477D/S483D/S484D/S487D)
Construct (chain): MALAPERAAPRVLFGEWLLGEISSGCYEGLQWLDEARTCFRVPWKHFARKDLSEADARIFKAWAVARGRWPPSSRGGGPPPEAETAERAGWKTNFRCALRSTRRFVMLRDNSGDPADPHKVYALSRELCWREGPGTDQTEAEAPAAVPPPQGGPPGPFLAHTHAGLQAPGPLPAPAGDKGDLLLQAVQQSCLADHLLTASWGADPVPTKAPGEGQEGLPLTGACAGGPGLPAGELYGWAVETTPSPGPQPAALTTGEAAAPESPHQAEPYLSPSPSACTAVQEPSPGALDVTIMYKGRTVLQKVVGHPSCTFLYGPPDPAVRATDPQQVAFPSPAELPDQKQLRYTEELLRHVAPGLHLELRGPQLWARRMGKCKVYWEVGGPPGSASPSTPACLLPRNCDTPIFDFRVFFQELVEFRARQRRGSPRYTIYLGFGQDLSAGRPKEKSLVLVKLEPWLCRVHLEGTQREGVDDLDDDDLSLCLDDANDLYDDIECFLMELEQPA
Oligonucleotide | fitted relative affinity [z-score]
TTAGGACTGCTTATCCATTAGTGCTAG | 0.127
CCAGTTTTGTGTGTGTGTTTGTGCTAG | 2.11
ATAGATCTCAGTCTCGATTAGTGCTAG | 0.622
AGTGTGGTCTGTTTCTGATAGTGCTAG | 1.28
TTAGTACTGGGGACTGGGTTAGTGCTA | -0.437
TCAACTCTGTGCTTTCCTACTGTGCTA | 1.73
TTAGATATCAATTTCGATTAGTGCTAG | 2.58
TAAGGTTCCCTTTTCCTTTAGTGCTAG | 3.07

Mixed results
Molecule | tested on | test | test system | setting | quantity | result
WDR43 (Homo sapiens, UniProt Q15061) | UTP18 (Homo sapiens, UniProt Q9Y5J1) | cross-linking MS | cell fractions | together with: DSSO | cross-linked residues | K384 to K329
CCC1CCCCN1C(=O)c1sc2nc(C)nc(N(CC)CC)c2c1C (stereo not drawn) |  |  | mouse, microsomes or S9 | 2 µM, 0.5 h | remaining compound | 0.0529%
KTN1 (Homo sapiens, UniProt Q86UP2) | PLEKHG1 (Homo sapiens, UniProt Q9ULL1) | cross-linking MS | cell fractions | together with: DSSO | cross-linked residues | K477 to S105
CALR (Homo sapiens, UniProt P27797) | NFE2L3 (Homo sapiens, UniProt Q9Y4A8) | cross-linking MS | cell fractions | together with: DHSO | cross-linked residues | E217 to E169
NDUFS5 (Homo sapiens, UniProt O43920) | NDUFA8 (Homo sapiens, UniProt P51970) | cross-linking MS | cell fractions | together with: DSSO | cross-linked residues | K101 to K14

For quick reference, copied from above (block 2):
Oligonucleotide | fitted relative affinity [z-score]
TTAGTACTGGGGACTGGGTTAGTGCTA | -0.437
TCAACTCTGTGCTTTCCTACTGTGCTA | 1.73
TTAGATATCAATTTCGATTAGTGCTAG | 2.58
